Assay results collected from several papers.
Each numbered part is a random draw from the data of one study; scales do not carry over between parts. Values joined by “and” are separate records of one study, mostly repeats; a detail may differ.
Sequence of UniProt P35368 (whole entry, looked up): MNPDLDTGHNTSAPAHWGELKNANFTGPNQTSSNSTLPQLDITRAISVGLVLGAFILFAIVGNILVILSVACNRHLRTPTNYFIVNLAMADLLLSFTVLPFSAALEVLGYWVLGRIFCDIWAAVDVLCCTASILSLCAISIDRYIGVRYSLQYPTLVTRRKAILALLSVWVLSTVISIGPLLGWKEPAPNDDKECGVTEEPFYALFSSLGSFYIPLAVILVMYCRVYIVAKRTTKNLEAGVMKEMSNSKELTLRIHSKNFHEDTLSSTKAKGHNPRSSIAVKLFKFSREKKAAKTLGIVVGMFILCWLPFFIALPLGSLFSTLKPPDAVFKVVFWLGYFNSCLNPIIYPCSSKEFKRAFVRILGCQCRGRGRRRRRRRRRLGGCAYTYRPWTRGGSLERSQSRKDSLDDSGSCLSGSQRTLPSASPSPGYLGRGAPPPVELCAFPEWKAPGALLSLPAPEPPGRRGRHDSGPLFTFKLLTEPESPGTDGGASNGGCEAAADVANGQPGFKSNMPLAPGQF
Sequence of UniProt P50406 (whole entry, looked up): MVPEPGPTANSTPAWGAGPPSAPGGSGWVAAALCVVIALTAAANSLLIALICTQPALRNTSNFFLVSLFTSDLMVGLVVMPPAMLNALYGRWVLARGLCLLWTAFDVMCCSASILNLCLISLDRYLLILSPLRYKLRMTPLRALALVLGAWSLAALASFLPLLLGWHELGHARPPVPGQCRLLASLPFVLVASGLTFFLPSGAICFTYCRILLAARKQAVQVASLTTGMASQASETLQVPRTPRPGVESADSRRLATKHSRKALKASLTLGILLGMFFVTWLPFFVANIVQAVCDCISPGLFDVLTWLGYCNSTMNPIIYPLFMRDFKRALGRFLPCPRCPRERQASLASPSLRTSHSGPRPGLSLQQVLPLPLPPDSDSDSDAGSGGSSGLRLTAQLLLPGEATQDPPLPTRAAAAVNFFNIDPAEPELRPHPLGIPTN
Sequence of UniProt Q5BJF2 (whole entry, looked up): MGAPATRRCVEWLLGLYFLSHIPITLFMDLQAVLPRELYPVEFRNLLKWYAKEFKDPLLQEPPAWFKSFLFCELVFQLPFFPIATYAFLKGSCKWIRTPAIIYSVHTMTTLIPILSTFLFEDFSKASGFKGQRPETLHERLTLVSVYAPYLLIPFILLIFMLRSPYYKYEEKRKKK
Sequence of UniProt P08172 (whole entry, looked up): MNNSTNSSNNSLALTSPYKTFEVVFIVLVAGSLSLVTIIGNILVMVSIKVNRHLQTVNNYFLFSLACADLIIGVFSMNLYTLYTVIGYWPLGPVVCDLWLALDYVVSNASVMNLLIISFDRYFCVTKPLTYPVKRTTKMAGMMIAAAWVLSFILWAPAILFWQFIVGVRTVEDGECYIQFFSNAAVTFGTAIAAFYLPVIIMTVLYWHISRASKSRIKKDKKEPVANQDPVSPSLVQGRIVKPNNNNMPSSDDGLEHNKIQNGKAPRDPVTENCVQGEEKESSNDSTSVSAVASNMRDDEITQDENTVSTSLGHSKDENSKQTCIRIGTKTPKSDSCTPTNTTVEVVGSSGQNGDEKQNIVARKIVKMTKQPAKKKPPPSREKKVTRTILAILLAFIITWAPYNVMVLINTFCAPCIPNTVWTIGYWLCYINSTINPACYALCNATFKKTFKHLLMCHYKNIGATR
Sequence of UniProt Q9H3N8 (whole entry, looked up): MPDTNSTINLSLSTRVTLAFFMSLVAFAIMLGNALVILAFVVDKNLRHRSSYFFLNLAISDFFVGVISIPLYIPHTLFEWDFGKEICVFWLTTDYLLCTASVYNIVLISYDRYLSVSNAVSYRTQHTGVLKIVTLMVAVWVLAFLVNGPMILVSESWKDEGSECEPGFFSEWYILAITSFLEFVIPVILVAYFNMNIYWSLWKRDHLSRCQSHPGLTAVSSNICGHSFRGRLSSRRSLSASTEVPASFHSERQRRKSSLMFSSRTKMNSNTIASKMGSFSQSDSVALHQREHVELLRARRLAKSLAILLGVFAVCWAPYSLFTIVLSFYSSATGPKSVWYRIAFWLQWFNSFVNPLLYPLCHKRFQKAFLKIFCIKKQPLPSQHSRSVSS

Set 1 — mode: inhibitor; tested at: concentration not given; notes: absolute value; with: with minus without ssDNA
Target: DNA polymerase theta, helicase domain (POLQ, Homo sapiens, UniProt O75417)
Sequence of UniProt O75417 (whole entry, looked up): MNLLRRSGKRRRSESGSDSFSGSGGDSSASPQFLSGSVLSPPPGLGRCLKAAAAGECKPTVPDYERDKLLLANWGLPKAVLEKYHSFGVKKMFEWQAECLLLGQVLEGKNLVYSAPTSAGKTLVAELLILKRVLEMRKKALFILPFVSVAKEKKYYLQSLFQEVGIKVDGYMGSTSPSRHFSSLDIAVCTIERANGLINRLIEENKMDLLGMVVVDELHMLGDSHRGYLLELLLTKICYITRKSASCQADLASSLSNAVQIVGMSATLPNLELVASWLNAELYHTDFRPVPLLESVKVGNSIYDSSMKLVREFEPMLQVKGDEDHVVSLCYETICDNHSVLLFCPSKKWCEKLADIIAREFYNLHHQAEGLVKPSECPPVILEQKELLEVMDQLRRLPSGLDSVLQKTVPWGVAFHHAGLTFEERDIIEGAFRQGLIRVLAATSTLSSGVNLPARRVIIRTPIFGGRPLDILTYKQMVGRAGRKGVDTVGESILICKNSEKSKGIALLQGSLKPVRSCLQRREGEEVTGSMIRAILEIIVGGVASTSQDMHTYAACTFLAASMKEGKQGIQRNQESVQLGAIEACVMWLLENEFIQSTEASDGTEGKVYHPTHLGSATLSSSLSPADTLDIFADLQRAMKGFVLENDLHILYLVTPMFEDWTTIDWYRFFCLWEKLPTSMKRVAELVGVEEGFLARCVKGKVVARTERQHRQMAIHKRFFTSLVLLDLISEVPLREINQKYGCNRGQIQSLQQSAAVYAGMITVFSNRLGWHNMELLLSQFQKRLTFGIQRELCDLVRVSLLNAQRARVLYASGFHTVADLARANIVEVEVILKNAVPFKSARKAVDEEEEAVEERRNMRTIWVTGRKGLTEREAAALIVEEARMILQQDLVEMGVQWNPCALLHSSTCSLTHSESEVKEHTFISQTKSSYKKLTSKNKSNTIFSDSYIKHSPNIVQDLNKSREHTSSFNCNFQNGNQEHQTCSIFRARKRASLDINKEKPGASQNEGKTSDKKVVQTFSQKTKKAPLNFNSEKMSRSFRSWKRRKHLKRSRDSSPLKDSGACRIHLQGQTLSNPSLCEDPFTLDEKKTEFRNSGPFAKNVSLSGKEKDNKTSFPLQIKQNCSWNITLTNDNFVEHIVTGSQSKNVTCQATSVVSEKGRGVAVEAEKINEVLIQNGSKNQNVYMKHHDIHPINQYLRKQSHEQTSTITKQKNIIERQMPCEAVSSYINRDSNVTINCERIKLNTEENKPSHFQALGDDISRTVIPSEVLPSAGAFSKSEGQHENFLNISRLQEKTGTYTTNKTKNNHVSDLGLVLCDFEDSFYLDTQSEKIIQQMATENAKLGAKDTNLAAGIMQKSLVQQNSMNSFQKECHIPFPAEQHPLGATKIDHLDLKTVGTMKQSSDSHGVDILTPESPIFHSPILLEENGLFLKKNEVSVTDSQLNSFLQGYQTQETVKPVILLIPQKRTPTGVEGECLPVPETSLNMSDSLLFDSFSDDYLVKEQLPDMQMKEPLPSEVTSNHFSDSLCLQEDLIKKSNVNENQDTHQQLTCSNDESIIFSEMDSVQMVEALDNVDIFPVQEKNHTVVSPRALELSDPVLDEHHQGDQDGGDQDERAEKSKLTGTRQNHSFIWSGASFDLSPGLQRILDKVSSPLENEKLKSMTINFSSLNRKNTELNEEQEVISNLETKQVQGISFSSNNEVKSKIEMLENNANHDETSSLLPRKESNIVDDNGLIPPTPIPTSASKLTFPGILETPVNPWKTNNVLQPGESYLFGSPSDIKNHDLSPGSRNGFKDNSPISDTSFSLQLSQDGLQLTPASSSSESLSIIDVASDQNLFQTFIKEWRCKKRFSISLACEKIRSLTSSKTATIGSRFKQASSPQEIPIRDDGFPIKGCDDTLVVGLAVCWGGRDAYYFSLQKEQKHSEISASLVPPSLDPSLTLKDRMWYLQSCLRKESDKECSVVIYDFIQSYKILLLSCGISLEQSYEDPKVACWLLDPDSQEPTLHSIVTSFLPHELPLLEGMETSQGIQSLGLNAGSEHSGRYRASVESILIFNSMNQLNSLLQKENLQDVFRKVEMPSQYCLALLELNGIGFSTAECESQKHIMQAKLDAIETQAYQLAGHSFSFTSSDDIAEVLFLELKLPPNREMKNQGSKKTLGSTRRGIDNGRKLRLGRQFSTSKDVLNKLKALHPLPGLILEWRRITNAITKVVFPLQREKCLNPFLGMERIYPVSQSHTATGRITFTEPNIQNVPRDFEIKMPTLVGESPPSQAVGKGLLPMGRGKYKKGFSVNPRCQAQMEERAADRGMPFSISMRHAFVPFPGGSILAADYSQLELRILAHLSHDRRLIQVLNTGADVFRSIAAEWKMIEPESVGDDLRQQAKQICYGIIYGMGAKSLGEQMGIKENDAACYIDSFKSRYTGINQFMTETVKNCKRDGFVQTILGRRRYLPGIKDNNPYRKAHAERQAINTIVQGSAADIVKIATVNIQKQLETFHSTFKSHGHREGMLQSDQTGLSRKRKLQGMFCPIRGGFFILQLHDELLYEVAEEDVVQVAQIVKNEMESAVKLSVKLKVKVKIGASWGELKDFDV
SMILES | difference in remaining activity [%]
CC1(C)Cc2c(-c3ccccc3)c(-c3ccc(Cl)cc3)c(CC(=O)O)n2C1 | 17.8
COc1cccc(C2C3=C(NN/C3=C3/C=CC=CC3=O)C(=O)N2CCc2ccc(OC)c(OC)c2)c1 (stereo not shown) | 15.1
Cc1ccccc1C(=O)Nc1sc2c(c1C(=O)O)CCC(C(C)(C)C)C2 (stereo not shown) | 35.3
N#Cc1c(O)c2c(-c3ccc(-c4ccccc4O)cc3)csc2[nH]c1=O | 2.53
O=c1[nH]c2cc(Cl)ccc2c(O)c1-c1cccc(Oc2ccccc2)c1 | 7.05
CCOc1ccc2nc3cc(N)ccc3c(N)c2c1 | 65.9
CC(=O)Oc1cccc2c1C(=O)c1c(OC(C)=O)cc(C(=O)O)cc1C2=O | 1.57
O=C(Nc1ccccc1F)c1ccc2c(Cl)c3c(nc2c1)CCC3 | 4.23
COc1ccc(C(=O)Nc2noc3ccccc23)cc1 | 0.697
O=C(O)c1cccnc1Nc1cccc(C(F)(F)F)c1 | 25.6
O=C1c2c(O)ccc(O)c2C(=O)c2c(NCCNCCO)ccc(NCCNCCO)c21 | 71.3
COc1cccc2c1C(=O)c1c(O)c3c(c(O)c1C2=O)C[C@@](O)(C(=O)CO)C[C@@H]3O[C@H]1C[C@H](N)[C@H](O)[C@H](C)O1 | 48
Cc1nc(N=Nc2cc(S(=O)(=O)O)c3cc([N+](=O)[O-])cc(S(=O)(=O)O)c3c2)c(COP(=O)(O)O)c(C=O)c1O | 107
Cc1ccc(-c2n[nH]c3c2C(c2cccc(O)c2)N(c2ccc(C(=O)O)cc2)C3=O)cc1 (stereo not shown) | 5.61
O=C(O)[C@]1(Cc2cccc(Nc3nccs3)n2)CC[C@@H](Oc2cccc(Cl)c2F)CC1 | 4.53

Set 2 — effect on: enzyme activity; mode: inhibitor; tested at: 10 µM
Target: Calcium/calmodulin-dependent protein kinase type II subunit alpha (CAMK2A, Homo sapiens, UniProt Q9UQM7)
Sequence of UniProt Q9UQM7 (whole entry, looked up): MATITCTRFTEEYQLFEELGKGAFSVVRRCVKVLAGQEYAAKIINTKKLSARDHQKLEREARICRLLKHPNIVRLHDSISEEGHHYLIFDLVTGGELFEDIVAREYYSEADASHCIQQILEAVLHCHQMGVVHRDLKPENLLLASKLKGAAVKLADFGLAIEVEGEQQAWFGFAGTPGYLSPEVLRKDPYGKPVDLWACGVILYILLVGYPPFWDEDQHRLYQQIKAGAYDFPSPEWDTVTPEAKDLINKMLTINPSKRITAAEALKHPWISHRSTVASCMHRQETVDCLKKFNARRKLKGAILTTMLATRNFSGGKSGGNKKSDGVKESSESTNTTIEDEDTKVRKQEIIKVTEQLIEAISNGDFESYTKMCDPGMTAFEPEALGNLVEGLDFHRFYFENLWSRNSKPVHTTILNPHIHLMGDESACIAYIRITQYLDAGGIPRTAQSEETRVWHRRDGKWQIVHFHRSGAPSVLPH
SMILES | inhibition
CC(=O)O[C@H]1C[C@H]2C(=O)O[C@H](c3ccoc3)C[C@@]2(C)[C@@H]2C[C@@H]3C[C@@H](C(=O)O3)[C@@H]12 | -8%
CNC1(C)C2CCC(C2)C1(C)C (stereo not shown) | -9%
C[C@H](CCC(=O)O)[C@H]1CC[C@H]2[C@@H]3CC[C@@H]4C[C@H](O)CC[C@]4(C)[C@H]3CC[C@]12C | -4%
C=C1CC[C@@H]2[C@](C)(CO)[C@H](O)CC[C@@]2(C)[C@@H]1CCC1=CCOC1=O | -0.31% and -0.05%
COc1cc(O)cc(CCc2ccc(O)c(OC)c2)c1 | -24%
OC[C@H]1O[C@@H](O[C@@H]2[C@@H](CO)OC(O)(CO)[C@H]2O)[C@H](O)[C@@H](O)[C@H]1O (mixture of isomers) | -12%
CC1(C)CC[C@]2(C(=O)O)CC[C@]3(C)C(=CC[C@@H]4[C@@]5(C)CC[C@H](O[C@@H]6O[C@H](C(=O)O)[C@@H](O)[C@H](O)[C@H]6O[C@@H]6O[C@H](CO)[C@@H](O)[C@H](O)[C@H]6O)C(C)(C)[C@@H]5CC[C@]43C)[C@@H]2C1 | -33%
O[C@H]1CCN2Cc3ccccc3N=C12 | -15%
NC(N)=NCCCC[C@H](N)C(=O)O | -0.19% and -0.06%
OC(CCCN1CCCCC1)(c1ccccc1)c1ccccc1 | -2%
COc1cc(N)c(Cl)cc1C(=O)N[C@@H]1CCN(CCCOc2ccc(F)cc2)C[C@@H]1OC (racemic) | 1%
O=C1NCCN1CCN1CCC(c2cn(-c3ccc(F)cc3)c3ccc(Cl)cc23)CC1 | -2%

Set 3 — cell line: mouse MPNST tumor cells; technique: high-content immunofluorescence imaging; item: nuclear SOX9; tested at: 10 µM; time: 12 h; notes: mean of 2 replicates; relative to: DMSO control; direction: higher = more nuclear SOX9
Structure (SMILES) | nuclear SOX9 intensity
CCCCN(CC)c1nc(C)nc2c1c(C)c(C)n2-c1c(C)cc(C)cc1C | 108 % of DMSO
CCCCNNC(=O)c1ccc(Br)cc1 | 133 % of DMSO
C[C@](N)(Cc1ccc(O)c(O)c1)C(=O)O | 98.3 % of DMSO and 97.5 % of DMSO
Cc1ccccc1C(=O)c1ccc(Nc2ccc(Br)cc2N)cc1Cl | 99.1 % of DMSO
NC(C(=O)O)c1cc(O)ccc1Cl (stereo not shown) | 90.7 % of DMSO
Nc1cc(-c2ccncc2)c[nH]c1=O | 86.1 % of DMSO
CCOC(=O)/C=C(C)/C=C/C=C(C)/C=C/c1c(C)cc(OC)c(C)c1C | 126 % of DMSO
O=C(Nc1cccc(C(F)(F)F)c1)Nc1ccc(Br)cc1-c1nn[nH]n1 | 112 % of DMSO
c1cc(OCCN2CCCCC2)cc(-c2n[nH]c3ccc(-c4nnc[nH]4)cc23)c1 | 110 % of DMSO
Nc1ccc(-c2cnc(N)c(-c3ccc(Cl)cc3)c2)cn1 | 119 % of DMSO
CNC(=O)COC(=O)NCCC1CCN(c2cccc(C)n2)CC1 | 102 % of DMSO
COc1cc2c(cc1O)CC[C@@H]1[C@@H]2CC[C@]2(C)[C@@H](O)CC[C@@H]12 | 172 % of DMSO
Cc1cc(CC(=O)O)n(C)c1C(=O)c1ccc(Cl)cc1 | 93.6 % of DMSO
C[C@]12CC[C@@H]3c4ccc(OS(=O)(=O)O)cc4CC[C@H]3[C@@H]1CCC2=O | 94.3 % of DMSO

Set 4 — effect on: ligand displacement; tested at: 10 µM
SMILES: N#CN1CC[C@H](C(=O)Nc2nc3c(s2)CN(C(=O)CN=[N+]=[N-])CC3)C1
target | inhibition [%]
Alpha-2A adrenergic receptor (ADRA2A, Homo sapiens, UniProt P08913) | -13.6
D(4) dopamine receptor (DRD4, Homo sapiens, UniProt P21917) | 4.26
Muscarinic acetylcholine receptor M5 (CHRM5, Homo sapiens, UniProt P08912) | -13.6
Beta-2 adrenergic receptor (ADRB2, Homo sapiens, UniProt P07550) | -0.7
Alpha-2C adrenergic receptor (ADRA2C, Homo sapiens, UniProt P18825) | 14.7
Sigma intracellular receptor 2 (TMEM97, Homo sapiens, UniProt Q5BJF2) | -1.19
5-hydroxytryptamine receptor 6 (HTR6, Homo sapiens, UniProt P50406) | 9.94
Muscarinic acetylcholine receptor M2 (CHRM2, Homo sapiens, UniProt P08172) | -0.45
Alpha-1B adrenergic receptor (ADRA1B, Homo sapiens, UniProt P35368) | -12
Sigma non-opioid intracellular receptor 1 (SIGMAR1, Homo sapiens, UniProt Q99720) | 69
Alpha-1D adrenergic receptor (ADRA1D, Homo sapiens, UniProt P25100) | 12.2
Histamine H1 receptor (HRH1, Homo sapiens, UniProt P35367) | 7.45
5-hydroxytryptamine receptor 7 (HTR7, Homo sapiens, UniProt P34969) | -0.16
Histamine H4 receptor (HRH4, Homo sapiens, UniProt Q9H3N8) | 5.77

For quick reference, copied from above (set 1):
SMILES | difference in remaining activity [%]
O=C(Nc1ccccc1F)c1ccc2c(Cl)c3c(nc2c1)CCC3 | 4.23
COc1ccc(C(=O)Nc2noc3ccccc23)cc1 | 0.697
O=C(O)c1cccnc1Nc1cccc(C(F)(F)F)c1 | 25.6
O=C1c2c(O)ccc(O)c2C(=O)c2c(NCCNCCO)ccc(NCCNCCO)c21 | 71.3
COc1cccc2c1C(=O)c1c(O)c3c(c(O)c1C2=O)C[C@@](O)(C(=O)CO)C[C@@H]3O[C@H]1C[C@H](N)[C@H](O)[C@H](C)O1 | 48
Cc1nc(N=Nc2cc(S(=O)(=O)O)c3cc([N+](=O)[O-])cc(S(=O)(=O)O)c3c2)c(COP(=O)(O)O)c(C=O)c1O | 107
Cc1ccc(-c2n[nH]c3c2C(c2cccc(O)c2)N(c2ccc(C(=O)O)cc2)C3=O)cc1 (stereo not shown) | 5.61
